# Results collected from several papers.
# Protocols differ between the studies behind these lines. Numbers after ± are the reported error.
# Chain of UniProt P08510 (whole entry, unmodified, looked up): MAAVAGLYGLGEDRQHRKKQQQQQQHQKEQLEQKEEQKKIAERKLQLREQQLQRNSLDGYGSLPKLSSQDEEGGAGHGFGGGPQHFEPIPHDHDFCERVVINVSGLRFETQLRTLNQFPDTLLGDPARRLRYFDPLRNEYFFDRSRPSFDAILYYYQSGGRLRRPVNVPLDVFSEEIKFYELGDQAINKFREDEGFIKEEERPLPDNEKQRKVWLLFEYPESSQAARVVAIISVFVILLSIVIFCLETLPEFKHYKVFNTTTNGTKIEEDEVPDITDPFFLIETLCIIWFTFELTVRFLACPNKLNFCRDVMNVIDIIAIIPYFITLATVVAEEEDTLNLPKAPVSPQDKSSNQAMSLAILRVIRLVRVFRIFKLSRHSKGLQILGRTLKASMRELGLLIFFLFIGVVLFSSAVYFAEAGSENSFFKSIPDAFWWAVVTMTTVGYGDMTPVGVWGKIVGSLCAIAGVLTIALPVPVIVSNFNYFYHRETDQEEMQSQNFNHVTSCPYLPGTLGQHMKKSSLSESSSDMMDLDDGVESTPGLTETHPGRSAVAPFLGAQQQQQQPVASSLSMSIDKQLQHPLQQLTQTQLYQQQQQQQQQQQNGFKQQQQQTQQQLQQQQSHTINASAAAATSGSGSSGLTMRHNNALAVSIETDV
# Chain of UniProt Q09472 (whole entry, unmodified, looked up): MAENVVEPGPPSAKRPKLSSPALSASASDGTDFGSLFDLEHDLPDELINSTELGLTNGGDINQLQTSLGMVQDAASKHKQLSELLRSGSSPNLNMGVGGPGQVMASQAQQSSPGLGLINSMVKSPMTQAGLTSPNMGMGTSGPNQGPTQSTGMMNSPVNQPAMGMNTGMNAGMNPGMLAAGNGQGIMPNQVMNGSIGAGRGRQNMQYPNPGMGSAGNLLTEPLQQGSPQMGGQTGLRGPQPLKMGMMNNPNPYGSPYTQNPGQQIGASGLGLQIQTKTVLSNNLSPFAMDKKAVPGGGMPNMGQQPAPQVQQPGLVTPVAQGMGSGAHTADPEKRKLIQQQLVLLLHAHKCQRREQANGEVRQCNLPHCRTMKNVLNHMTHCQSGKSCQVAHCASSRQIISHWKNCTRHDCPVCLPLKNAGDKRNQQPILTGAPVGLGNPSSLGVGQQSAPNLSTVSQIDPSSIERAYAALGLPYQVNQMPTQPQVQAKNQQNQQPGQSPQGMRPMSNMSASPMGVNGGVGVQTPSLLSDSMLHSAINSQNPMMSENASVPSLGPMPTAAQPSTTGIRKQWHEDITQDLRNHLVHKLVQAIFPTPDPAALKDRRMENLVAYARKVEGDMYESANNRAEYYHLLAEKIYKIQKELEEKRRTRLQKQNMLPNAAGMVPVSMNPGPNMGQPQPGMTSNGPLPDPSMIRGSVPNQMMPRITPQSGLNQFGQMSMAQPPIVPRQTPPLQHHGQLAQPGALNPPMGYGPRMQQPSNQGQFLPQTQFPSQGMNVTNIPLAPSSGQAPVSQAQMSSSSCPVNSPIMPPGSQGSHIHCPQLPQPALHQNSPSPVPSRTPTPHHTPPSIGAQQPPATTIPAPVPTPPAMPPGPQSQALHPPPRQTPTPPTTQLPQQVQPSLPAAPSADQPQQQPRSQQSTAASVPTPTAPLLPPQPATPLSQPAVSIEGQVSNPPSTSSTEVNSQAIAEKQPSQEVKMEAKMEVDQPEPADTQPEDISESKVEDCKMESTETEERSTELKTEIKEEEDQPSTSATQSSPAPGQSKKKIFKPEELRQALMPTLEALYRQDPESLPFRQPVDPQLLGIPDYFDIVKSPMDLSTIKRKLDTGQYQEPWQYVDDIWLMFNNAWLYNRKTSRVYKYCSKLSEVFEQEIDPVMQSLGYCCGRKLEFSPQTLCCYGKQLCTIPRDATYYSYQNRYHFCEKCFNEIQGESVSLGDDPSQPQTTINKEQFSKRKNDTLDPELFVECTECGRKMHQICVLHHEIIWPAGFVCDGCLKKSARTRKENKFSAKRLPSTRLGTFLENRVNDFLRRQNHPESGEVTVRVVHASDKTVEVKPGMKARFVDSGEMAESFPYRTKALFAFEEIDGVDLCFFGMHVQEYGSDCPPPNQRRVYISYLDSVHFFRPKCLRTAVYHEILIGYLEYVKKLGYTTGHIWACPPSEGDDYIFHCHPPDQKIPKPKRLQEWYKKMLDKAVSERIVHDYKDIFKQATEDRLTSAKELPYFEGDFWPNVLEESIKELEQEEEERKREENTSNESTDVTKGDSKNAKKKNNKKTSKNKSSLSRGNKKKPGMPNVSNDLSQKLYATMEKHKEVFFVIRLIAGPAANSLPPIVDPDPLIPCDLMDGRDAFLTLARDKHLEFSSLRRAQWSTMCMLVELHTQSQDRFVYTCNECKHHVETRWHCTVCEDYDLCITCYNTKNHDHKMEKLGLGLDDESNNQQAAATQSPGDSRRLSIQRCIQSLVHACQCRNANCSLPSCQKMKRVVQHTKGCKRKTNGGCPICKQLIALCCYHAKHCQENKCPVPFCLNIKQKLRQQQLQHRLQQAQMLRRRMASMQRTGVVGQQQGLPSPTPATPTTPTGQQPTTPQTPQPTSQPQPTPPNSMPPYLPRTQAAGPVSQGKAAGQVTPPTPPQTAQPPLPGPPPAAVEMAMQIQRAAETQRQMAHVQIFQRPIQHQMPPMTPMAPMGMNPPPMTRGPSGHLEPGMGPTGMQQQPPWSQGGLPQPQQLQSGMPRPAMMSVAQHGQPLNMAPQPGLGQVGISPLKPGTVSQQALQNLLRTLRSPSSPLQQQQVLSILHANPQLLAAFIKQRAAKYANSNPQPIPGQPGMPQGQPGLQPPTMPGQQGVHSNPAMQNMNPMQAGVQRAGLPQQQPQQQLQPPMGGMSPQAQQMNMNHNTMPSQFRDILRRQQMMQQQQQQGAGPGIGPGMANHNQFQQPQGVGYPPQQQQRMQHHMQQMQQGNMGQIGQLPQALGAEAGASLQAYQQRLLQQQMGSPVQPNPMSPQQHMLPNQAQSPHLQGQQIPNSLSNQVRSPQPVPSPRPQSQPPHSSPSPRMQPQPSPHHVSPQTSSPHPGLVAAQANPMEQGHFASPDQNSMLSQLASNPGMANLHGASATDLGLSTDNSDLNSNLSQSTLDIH
# Chain of UniProt P56817 (whole entry, looked up): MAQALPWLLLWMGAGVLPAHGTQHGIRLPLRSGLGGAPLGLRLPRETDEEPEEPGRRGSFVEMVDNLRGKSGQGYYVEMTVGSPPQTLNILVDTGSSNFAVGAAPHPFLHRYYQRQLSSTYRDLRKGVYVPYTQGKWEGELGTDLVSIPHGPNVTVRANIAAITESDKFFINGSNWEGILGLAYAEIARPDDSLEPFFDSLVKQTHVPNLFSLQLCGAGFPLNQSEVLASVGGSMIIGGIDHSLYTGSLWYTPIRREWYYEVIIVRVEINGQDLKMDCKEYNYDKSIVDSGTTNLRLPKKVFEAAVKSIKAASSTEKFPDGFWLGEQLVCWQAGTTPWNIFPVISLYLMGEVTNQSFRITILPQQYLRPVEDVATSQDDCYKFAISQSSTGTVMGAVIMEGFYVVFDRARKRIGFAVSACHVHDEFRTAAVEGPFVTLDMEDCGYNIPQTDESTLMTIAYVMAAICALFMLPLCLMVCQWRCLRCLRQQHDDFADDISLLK
# Chain of UniProt P0C0V0 (whole entry, unmodified, looked up): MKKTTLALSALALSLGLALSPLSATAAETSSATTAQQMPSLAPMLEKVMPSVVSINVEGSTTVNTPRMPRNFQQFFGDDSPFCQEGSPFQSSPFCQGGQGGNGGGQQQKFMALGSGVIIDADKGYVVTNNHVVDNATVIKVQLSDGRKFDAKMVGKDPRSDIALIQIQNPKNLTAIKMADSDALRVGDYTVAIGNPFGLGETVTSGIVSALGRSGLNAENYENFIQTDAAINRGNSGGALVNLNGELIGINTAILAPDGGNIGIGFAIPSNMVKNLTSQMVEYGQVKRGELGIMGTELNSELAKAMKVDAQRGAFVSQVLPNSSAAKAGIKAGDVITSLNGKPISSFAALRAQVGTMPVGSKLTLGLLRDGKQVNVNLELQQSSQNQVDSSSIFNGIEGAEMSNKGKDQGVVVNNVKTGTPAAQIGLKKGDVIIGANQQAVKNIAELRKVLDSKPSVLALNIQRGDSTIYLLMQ
# Chain of UniProt Q9UNE7 (whole entry, looked up): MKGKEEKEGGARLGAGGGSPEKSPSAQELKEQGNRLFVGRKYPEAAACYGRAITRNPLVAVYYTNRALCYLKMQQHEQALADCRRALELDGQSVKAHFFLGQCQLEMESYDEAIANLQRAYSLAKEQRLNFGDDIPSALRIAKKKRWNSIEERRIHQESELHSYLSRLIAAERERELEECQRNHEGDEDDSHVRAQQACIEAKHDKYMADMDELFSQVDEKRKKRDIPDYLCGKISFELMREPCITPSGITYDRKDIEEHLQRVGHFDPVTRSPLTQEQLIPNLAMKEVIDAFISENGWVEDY
# Chain of UniProt Q8R146 (whole entry, looked up): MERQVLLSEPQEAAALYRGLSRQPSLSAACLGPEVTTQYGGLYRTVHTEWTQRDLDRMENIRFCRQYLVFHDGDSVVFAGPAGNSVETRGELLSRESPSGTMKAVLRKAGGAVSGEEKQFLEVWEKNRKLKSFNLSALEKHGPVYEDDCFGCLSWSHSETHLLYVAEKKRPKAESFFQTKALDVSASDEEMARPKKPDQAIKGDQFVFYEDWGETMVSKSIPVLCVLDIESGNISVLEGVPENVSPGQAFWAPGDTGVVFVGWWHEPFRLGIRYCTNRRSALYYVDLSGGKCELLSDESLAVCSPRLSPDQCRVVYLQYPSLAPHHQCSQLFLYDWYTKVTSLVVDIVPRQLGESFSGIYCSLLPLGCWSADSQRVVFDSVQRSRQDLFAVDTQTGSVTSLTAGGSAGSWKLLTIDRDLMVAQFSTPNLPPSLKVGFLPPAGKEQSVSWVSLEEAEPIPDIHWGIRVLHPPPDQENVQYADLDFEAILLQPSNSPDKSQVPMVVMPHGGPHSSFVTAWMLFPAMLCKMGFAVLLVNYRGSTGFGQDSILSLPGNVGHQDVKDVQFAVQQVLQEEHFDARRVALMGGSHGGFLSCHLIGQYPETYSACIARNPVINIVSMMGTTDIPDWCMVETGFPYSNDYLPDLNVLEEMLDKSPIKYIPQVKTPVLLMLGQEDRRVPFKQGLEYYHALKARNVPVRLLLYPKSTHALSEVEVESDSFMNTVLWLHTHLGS
SMILES,target,test,test system,conditions,scale,measurement,result
CN1CCC(Nc2cccc3c2cc(C#CCNc2ccc(P(C)(C)=O)cc2)n3CC(F)(F)F)CC1,"Cellular tumor antigen p53 (TP53, Homo sapiens, UniProt P04637, Y220C)","thermal stabilisation, nano differential scanning fluorimetry",,,reference: DMSO,ΔTm,4.55 ± 0.1 °C
COc1ccc2cc1Oc1ccc(cc1)C[C@H]1c3cc(c(OC)cc3CC[N+]1(C)Cc1ccc3ccccc3c1)Oc1c(OC)c(OC)cc3c1[C@H](C2)[N+](C)(Cc1ccc2ccccc2c1)CC3 (mixture of isomers),poly(dG)·poly(dC) 18-bp dsDNA,"DNA binding, ethidium bromide displacement","phosphate buffer, 10% DMSO","pH 7.2, 25 °C, dsDNA 10 µM, 10 mM NaCl, together with: ethidium bromide 5 µM",,Stern-Volmer constant,6760 M⁻¹
Cc1ccc(/C=C/C(=O)c2ccc(N3CCNCC3)cc2)cc1,"Beta-secretase 1 (BACE1, Homo sapiens, UniProt P56817)","enzyme activity, inhibitor, fluorescence",,10 µM,,remaining activity,55.5%
CSCC[C@H](N)C(=O)N[C@@H](C)C(=O)N[C@@H](C)C(=O)N[C@H](C(=O)N[C@@H](C)C(=O)NCC(=O)N[C@@H](CC(C)C)C(=O)N[C@@H](Cc1ccc(O)cc1)C(=O)NCC(=O)N[C@@H](CC(C)C)C(=O)NCC(=O)N[C@@H](CCCCN)C(=O)N[C@@H](CCCCN)C(=O)N[C@@H](CCCNC(=N)N)C(=O)N[C@@H](CCC(N)=O)C(=O)N[C@@H](Cc1c[nH]cn1)C(=O)N[C@@H](CCCNC(=N)N)C(=O)N[C@@H](CCCCN)C(=O)N[C@@H](CCCCN)C(=O)N[C@@H](CCC(N)=O)C(N)=O)C(C)C,"Sh (Drosophila melanogaster, UniProt P08510, A391C/C301S/C308S/del6-46/T449V)",channel block,,"0.5 µM, before MTSES modification",,fast time constant,37 ms
CC(C)CC(O)(CC(C)C)c1cn(C(=O)N2CCCC2)nn1,"Acylamino-acid-releasing enzyme (Apeh, Mus musculus, UniProt Q8R146)","enzyme activity, inhibitor, competitive ABPP","mouse, brain and heart","intraperitoneal, 4 h",,lowest dose for complete inhibition,0.4 mg/kg
CCN(Cc1ccccc1)C(=O)CCc1nc(CN2CCN(C(=O)Cc3ccc(OC)c(OC)c3)CC2)no1,"Sodium channel protein type 10 subunit alpha (Scn10a, Rattus norvegicus, UniProt Q62968)","sodium current, whole-cell patch clamp",rat DRG neurons,10 µM,"reference: control, towards hyperpolarisation",inactivation curve shift,16.1 mV
CSCC[C@H](NC(=O)[C@H](CCCNC(=N)N)NC(=O)[C@H](CO)NC(=O)[C@@H](NC(=O)[C@H](CC(=O)O)NC(=O)[C@H](CC(=O)O)NC(=O)CCCCCNC(=O)c1ccc2c(c1)C(=O)OC21c2ccc(O)cc2Oc2cc(O)ccc21)[C@@H](C)O)C(=O)N[C@@H](CCC(=O)O)C(=O)N[C@@H](CCCCN)C(=O)N[C@H](C(=O)N[C@@H](CC(=O)O)C(=O)O)C(C)C,"E3 ubiquitin-protein ligase CHIP (STUB1, Homo sapiens, UniProt Q9UNE7)",fluorescence polarization,,pH 7.4,reference: wild-type tracer,affinity decrease,≥ 3 fold
CC[N+](CC)(CC)CCCC(=O)NCC(=O)NCC(=O)NCC(=O)NC(CCCCNC(=O)CCN1C(=O)C=CC1=O)C(N)=O (centres unmarked),"Sh (Drosophila melanogaster, UniProt P08510, del6-46/K253C/F425G/T449F)","ion current, tethered blocker, two-electrode voltage clamp",Xenopus oocytes,concentration not given,,irreversible block,45%
CC[C@H](C)[C@H](NC(=O)[C@H](Cc1ccccc1)NC(=O)[C@H](CCC(=O)O)NC(=O)[C@H](CCCCN)NC(=O)[C@H](C)NC(=O)[C@H](C)NC(=O)[C@H](CC(N)=O)NC(=O)CNC(=O)[C@H](CCC(=O)O)NC(=O)[C@H](CC(C)C)NC(=O)[C@H](Cc1ccc(O)cc1)NC(=O)[C@H](CO)NC(=O)[C@H](CO)NC(=O)[C@@H](NC(=O)[C@H](CC(=O)O)NC(=O)[C@H](CO)NC(=O)[C@@H](NC(=O)[C@H](Cc1ccccc1)NC(=O)[C@H](CCC(N)=O)NC(=O)CNC(=O)[C@H](CCC(=O)O)NC(=O)[C@H](C)NC(=O)[C@@H](N)Cc1c[nH]cn1)[C@@H](C)O)C(C)C)C(=O)N[C@@H](C)C(=O)N[C@@H](Cc1c[nH]c2ccccc12)C(=O)N[C@@H](CC(C)C)C(=O)N[C@H](C(=O)N[C@@H](CCCCN)C(=O)NCC(=O)N[C@@H](CCCNC(=N)N)C(N)=O)C(C)C,"Glucagon-like peptide 1 receptor (Rattus norvegicus, UniProt P32301)","cAMP production, agonist",RIN-m5F cell membranes,,reference: GLP-1(7-36) amide over analogue EC50,relative potency,0.014
Cc1cc(O)cc(C)c1C[C@@H]1NC(=O)[C@H](CCCCN)NC(=O)[C@H](Cc2ccccc2)NC(=O)[C@@H](CCCNC(N)=O)NC1=O,"mu opioid receptor, guinea pig",antagonist,guinea pig ileum,,,Ke,402 ± 14 nM
"COC(=O)C1C(OC(c2ccc(Cl)cc2)c2ccc(Cl)cc2)CC2CCC1N2C (single isomer, unassigned)","Beta-2 adrenergic receptor (ADRB2, Homo sapiens, UniProt P07550)","binding, radioligand displacement",,"inactive if below 75% at 10000 nM, together with: [3H]CGP-12177",,Ki,inactive
CC[C@H](C)[C@H](NC(=O)[C@H](CCC(N)=O)NC(=O)[C@H](CC(C)C)NC(=O)[C@@H](NC(=O)CNC(=O)[C@H](Cc1ccc(O)cc1)NC(=O)[C@H](CC(=O)O)NC(=O)[C@@H](NC(=O)[C@H](CO)NC(=O)CNC(=O)[C@H](CC(=O)O)NC(=O)[C@@H](NC(=O)[C@H](CC(N)=O)NC(=O)[C@H](CCCNC(=N)N)NC(=O)[C@H](CC(N)=O)NC(=O)[C@@H](NC(=O)[C@H](C)NC(=O)[C@H](CCC(N)=O)NC(=O)[C@@H](NC(=O)[C@H](CC(N)=O)NC(=O)[C@H](Cc1ccccc1)NC(=O)[C@H](CC(N)=O)NC(=O)[C@H](CO)NC(=O)[C@H](CCC(=O)O)NC(=O)[C@H](Cc1ccccc1)NC(=O)[C@H](CCCCN)NC(=O)[C@H](C)NC(=O)[C@H](C)NC(=O)[C@H](CO)NC(=O)[C@@H](NC(=O)[C@H](Cc1c[nH]c2ccccc12)NC(=O)[C@H](CC(N)=O)NC(=O)CNC(=O)[C@H](CC(C)C)NC(=O)[C@H](CO)NC(=O)[C@H](Cc1ccc(O)cc1)NC(=O)CNC(=O)[C@H](CCCNC(=N)N)NC(=O)[C@H](Cc1ccc(O)cc1)NC(=O)[C@H](CC(N)=O)NC(=O)[C@@H](N)CC(=O)O)C(C)C)[C@@H](C)O)[C@@H](C)O)[C@@H](C)O)[C@@H](C)O)[C@@H](C)CC)C(=O)O,"Periplasmic serine endoprotease DegP (degP, Escherichia coli, UniProt P0C0V0, S236A)","oligomer formation, sedimentation velocity",,"30 µM, together with: protein 20 µM",,24-mers fraction,7%
N=C(N)SCc1ccc(B(O)O)cc1,"Cathepsin B (CTSB, Homo sapiens, UniProt P07858)","enzyme activity, inhibitor",,"up to 10 µM, together with: Z-FR-AMC 10 µM",,IC50,inactive
CN1C(=O)C2(Cc3ccc(CC45SSC(CO)(C(=O)N4C)N(C)C5=O)cc3)SSC1(CO)C(=O)N2C (racemic),"Histone acetyltransferase p300, CH1 domain (EP300, Homo sapiens, UniProt Q09472)",SPR,,"p300 CH1 domain GST fusion, together with: DTT 100 µM",,dissociation rate constant,0.0038 s⁻¹
